Experimental data from different studies.
Each numbered part is a random draw from the data of one study; scales do not carry over between parts. Substitutions count along the parent as printed.

Set 1
Target: Interferon regulatory factor 5, full length, phosphomimetic (IRF5, Homo sapiens, UniProt Q13568-2, residues 1-514, K96S/S451D/S453D/S456D/S462D)
Technique: protein-binding microarray
Form: double-stranded DNA, one strand shown
Sample: in vitro
Concentration: 250 nM
Notes: 60-bp whole probe
With: salmon DNA 0.4 mg/ml
Reference: random background probes
Direction: higher = stronger binding
All sequences stand within: GCCTAGCAC … GTCTTGATTCGCTTGACGCTGCTG
Oligonucleotide | log fluorescence [z-score]
TTAGGACTGCTACTTCTTTAGTGCTAG | -0.234
AGCAGAAAGTGAAATACCCTCGTGCTA | 2.29
GACGGTATGGGTCTCGGGACGTGCTAG | -0.365
TTAGAACTGAGACTCGATTAGTGCTAG | -0.00741
GACGGTATCGACTATCGCGACGTGCTA | 2.84
TCAGATCTCCGAGATGCCACTGTGCTA | -0.301
TTAGGACTGCTATTGCTTTAGTGCTAG | -0.0438
TTAGGACTGCTTTTCCTTTGGTGCTAG | 0.127
TCAAGTCTGCAACATGGGACTGTGCTA | -0.296
CTGCTCCTCTTTTTTTGGTAGTGCTAG | 0.429
GACGGTATCGCCTATCGGGACGTGCTA | 1.59
CGACATCTGCAAGATCCACAAGTGCTA | 0.148
GACGGTCACCTACTGCTGACGTGCTAG | -0.327
GACGATTACAGACTGGAGACGTGCTAG | -0.195
TCATTTCTCTGGTTCTTACTGTGCTAG | 1.38
GACGATATCGGGGCTGGAGACGTGCTA | 0.448

Set 2
Target: RING finger protein unkempt homolog, zinc fingers 1-6, GST-SBP tag (UNK, Homo sapiens, UniProt Q9C0B0, residues 30-357)
Sequence of UniProt Q9C0B0 (30-357, looked up): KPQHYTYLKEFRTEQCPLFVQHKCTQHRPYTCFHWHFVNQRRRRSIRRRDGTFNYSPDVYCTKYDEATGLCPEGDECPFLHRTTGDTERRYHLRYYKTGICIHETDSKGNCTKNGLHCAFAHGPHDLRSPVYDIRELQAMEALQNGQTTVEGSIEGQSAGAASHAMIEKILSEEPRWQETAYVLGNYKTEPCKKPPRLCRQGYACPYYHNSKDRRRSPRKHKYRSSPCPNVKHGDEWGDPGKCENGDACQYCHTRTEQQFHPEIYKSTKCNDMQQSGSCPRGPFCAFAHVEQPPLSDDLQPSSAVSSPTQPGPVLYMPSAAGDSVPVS
Technique: RNA Bind-n-Seq
Form: RNA
Sample: in vitro
Concentration: not given
Notes: RNA with constant flanks, human and mouse sites, ends assumed
Reference: input RNA pool
Direction: higher = stronger binding
All sequences stand within: GGGAGUUCUACAGUCCGACGAUC … CAACAGAGGAUUGAGCAUCA
Oligonucleotide | bound/input enrichment [ratio]
UCUGAGGAUACCACUGAAGAGACAUUAAAGGAGUCAUUUGACGGCUCCGUUCGGGCAAGGAUAGUUACUGACCGGGAAACUGGGUCCUCCAAAGGGUUUGGUUUUGUAGACUUCAACAGU | 0.247
GUCAAGGCCAAAACACUAAGAAAGCUGAUCCAGCAAACAUUCAGGCAGUUUGCCAACCUUAAUAGAGAAGAAAGCAUCCUGAAAUUCUUUGAGAUUCUUUCUCCUGUGUACAGAUUUGAC | 0.512
GCGACCCCCAGCCUGCUGGGCAGGUAAACCAGCCAAAACUAUUCCCUGAAUGAAAACACCUUUUUUUAAAGUUGCAUAUAUACACAAGAAAAAACCGAAAUGCUUUUUAUUUUGCCUGAA | 0.253
AACUUAAUUACUGGGAUGCAGAGUCCUUACUUUAUCGCCAGCCCGUAGGCAUUUCUGAAGUGCACUUUUUUGAAACAUCAUUUUGCUAACUCUCAGCAGUGUCUAAUUAAACUGAGCAAU | 0.212
AACAUAAAGCAGGACGACCCCUUUGAACUCUUCAUAGCAGCCACAAACAUUCGCUACUGCUACUACAACGAGACCCACAAGAUCCUGGGCAAUACCUUCGGCAUGUGUGUGCUGCAGGAU | 0.154
UGCCUCAAGCUGCUGAAGGAAUUUAAACGGAAUGACCAUGAUGAUGACGAGGACGAGGAGGUCAUCUCCAAGACAGUGCCUCCAGUGGACAUUGUGUUCGAGCGGGAUAUGCUCACACAG | 0.138
CAGGGCAGCACCACCCCCUCCUCCUUCUUUCCACACCUGCAAACCCUUUUGCCUGGGCUGCAUAGUUAGUGUUAAUUACAUCGCAGCUUUGAGGGCUCCUGUGGCAAAUACCCGGAUUAA | 0.461

Set 3
Target: Histone acetyltransferase KAT6A, winged helix 1, GST fusion (KAT6A, Homo sapiens, UniProt Q92794, residues 1-85)
Technique: protein binding microarray
Form: double-stranded DNA, one strand shown
Sample: in vitro
Concentration: not given
Notes: 8-mer, flanks averaged, mean of 2 arrays, mostly near background
Reference: not given
Direction: higher = stronger binding
Target sequence (chain): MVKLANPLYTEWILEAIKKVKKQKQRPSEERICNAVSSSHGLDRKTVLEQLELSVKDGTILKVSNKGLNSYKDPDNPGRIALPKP
Oligonucleotide | E-score
CAGAAATG | -0.174
GCCCATCA | -0.105
CCGGGAAC | 0.362
CGGTTGCC | 0.221
CAAGTGCA | -0.231
GCCGTTCA | 0.274
AGAGCTAG | -0.0911
CACGCCAG | 0.044
CACTGAGA | -0.114
CTTACTAA | -0.0505
CATGGTAA | -0.108
GATGTGGA | -0.0989
TTAATTAA | -0.248
CCAAGGGC | 0.0199
ATATGAGA | -0.192
CTCTAATA | -0.207
TGACCCAA | -0.216
AGTTGGAT | -0.248

Set 4
Target: CCND3, cyclin fold, Cln2 fusion (human)
Technique: yeast growth competition, sequencing
Sample: yeast
Notes: weak parent motif
Reference: not given
Direction: higher = stronger binding
Starting sequence: MICAL3 docking peptide (human); LQLRRQLSFSEDS; partner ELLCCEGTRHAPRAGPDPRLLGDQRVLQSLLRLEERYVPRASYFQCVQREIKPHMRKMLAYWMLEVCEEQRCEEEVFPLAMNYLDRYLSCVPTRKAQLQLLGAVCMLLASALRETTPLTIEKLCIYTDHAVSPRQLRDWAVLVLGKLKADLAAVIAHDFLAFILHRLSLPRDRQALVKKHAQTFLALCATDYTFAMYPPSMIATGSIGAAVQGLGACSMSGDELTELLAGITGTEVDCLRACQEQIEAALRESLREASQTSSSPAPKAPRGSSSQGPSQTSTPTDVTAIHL
Substitution | normalised enrichment score
L3P | 0.214
Q6E | -0.108
S10R | 0.333
L3V | 0.0299
F9W | -0.156
F9K | 0.469
S8H | 0.693
R5H | 0.0406
S10T | -0.0813
L7A | 0.0849
S8N | 0.249
R4P | 0.213
R4A | 0.0835
E11A | -0.0343
S8I | 0.243
L7G | -0.00907
F9I | -0.258
D12I | 0.283
Q6P | -0.208

Set 5
Target: Fragile X messenger ribonucleoprotein 1, C-terminal low-complexity region (Fmr1, Mus musculus, UniProt P35922)
Technique: RNA Bind-n-Seq
Form: RNA
Sample: in vitro
Concentration: 200 nM
Notes: whole 134-nt RNA, ends assumed
With: 150 mM LiCl
Reference: input library
Direction: higher = stronger binding
All molecules: 7-deaza-guanosine replaces G
All sequences stand within: GGGAGUUCUACAGUCCGACGAUC … UGGAAUUCUCGGGUGUCAAGG
Oligonucleotide | log2 enrichment
UCCCUGAGACGGCGGGCAACAGCAUCGGCAGGAACGCCAUGGCCGUCCCCUCCCAGCUCUUACCUUACCAUCGACCUCACAGACGACACA | 1.65
CACAGACAACACGCACCCACACAGACACAGAGGGAAGGGGUUGGGAUGGGGACAGGGUGCACAGCAGGUCGGGGUAGGACCCCAGCCCCU | -0.534
CUGUGCUACACAUCGUAUGUACCGAAUCGGGGUUUUUUUGGGUUUUUUUGGGUUUUUUUGGAAAGUAUUAUGUUACGCCGUUCGGAUCUG | 0.894
UCCUGUGCUACACAUCGUAUGUACCGAAUCGGCCCCCCCGGCCCCCCCGGGCCCCCCCGGAAAGUAUUAUGUUACGCCGUUCGGAUCUGC | 1.41
AGUCCUGUGCUACACAUCGUAUGUACCGAAUCGGGGUGGGGAAAAAAAGGGGAGGGGAAAGUAUUAUGUUACGCCGUUCGGAUCUGCACU | -0.00581
UAACUUUAGAGGAGGAUCUGAUGGAUAUGGCAGUGGACGUGGAUUUGGGGAUGGCUAUAAUGGGUAUGGAGAAGGACCUGGAGGUGGCAA | 0.392
UCCUGUGCUACACAUCGUAUGUACCGAAUCGGGAAAAAGGGAAAAAGGGAAAAAAAGGGAAAGUAUUAUGUUACGCCGUUCGGAUCUGCA | 0.631
CACAGACAACACGCACCCACACAGACACAGAGGGAAGGGGUUGGGAUGGGGACAUGGUGCACAGCAGGGCGGGGUAGGACCCCAGCCCCU | -0.487

Set 6
Target: Prothrombin, mature alpha-thrombin (F2, Homo sapiens, UniProt P00734)
Technique: aptamer microarray, sandwich
Form: DNA with 2'F-ANA
Sample: in vitro
Concentration: 200 nM
Notes: whole 15-mer aptamer, many near background
With: Cy3 exosite-II aptamer, 400 nM
Direction: higher = stronger binding
Oligonucleotide: GGTTGGTGTGGTTGG
Modification | mean fluorescence intensity [a.u.]
2'F-ANA at 3 6 15 | 892
2'F-ANA at 2 3 4 6 7 8 9 10 11 12 14 | 163
2'F-ANA at 4 5 7 9 12 13 14 15 | 53.8
2'F-ANA at 2 3 5 8 10 11 12 13 14 15 | 62.2
2'F-ANA at 1 2 3 7 9 13 14 | 65.1
2'F-ANA at 1 5 6 7 9 10 11 | 78.1
2'F-ANA at 1 4 6 8 11 12 14 15 | 57.3
2'F-ANA at 2 7 9 12 13 14 15 | 173
2'F-ANA at 1 2 6 7 8 9 11 12 14 15 | 70.8
2'F-ANA at 1 3 5 8 9 | 66.8
2'F-ANA at 1 3 4 6 8 9 14 15 | 64.9
2'F-ANA at 3 5 6 7 8 11 12 14 | 62.1
2'F-ANA at 1 3 8 10 11 12 13 15 | 121
2'F-ANA at 3 4 6 10 12 | 257
2'F-ANA at 2 4 5 6 14 | 54.4
2'F-ANA at 2 5 7 8 9 11 13 14 | 83.7
2'F-ANA at 1 4 5 6 8 12 13 14 | 44.1
2'F-ANA at 3 4 6 7 10 14 | 184

Set 7
Target: TAR DNA-binding protein 43, full length, His tag (TARDBP, Homo sapiens, UniProt Q13148, residues 1-414)
Technique: RNA Bind-n-Seq
Form: RNA
Sample: in vitro
Concentration: 20 nM
Notes: 6-mer, flanks averaged, single round
With: 150 mM LiCl
Reference: input library
Direction: higher = stronger binding
Oligonucleotide | 6-mer enrichment (R)
UUACUA | 0.906
CUUCAU | 0.9
CCUGCU | 0.934
GGGUUU | 1.21
ACCGCA | 0.88
UAAGGG | 1.06
AGCUAC | 0.835

Repeated from above (set 4):
Substitution | normalised enrichment score
L3P | 0.214
S10T | -0.0813
L7G | -0.00907
Q6P | -0.208
S8N | 0.249
E11A | -0.0343
F9W | -0.156
S10R | 0.333
F9K | 0.469
Q6E | -0.108
S8I | 0.243
R4P | 0.213
F9I | -0.258
L3V | 0.0299
